# Assay results gathered from unrelated publications.
# Numbered parts are unrelated; each lists some results of a single study.

# Study 1
# Target: Ras GTPase-activating protein-binding protein 1, full length (G3BP1, Homo sapiens, UniProt Q13283)
# Sequence of UniProt Q13283 (whole entry, looked up): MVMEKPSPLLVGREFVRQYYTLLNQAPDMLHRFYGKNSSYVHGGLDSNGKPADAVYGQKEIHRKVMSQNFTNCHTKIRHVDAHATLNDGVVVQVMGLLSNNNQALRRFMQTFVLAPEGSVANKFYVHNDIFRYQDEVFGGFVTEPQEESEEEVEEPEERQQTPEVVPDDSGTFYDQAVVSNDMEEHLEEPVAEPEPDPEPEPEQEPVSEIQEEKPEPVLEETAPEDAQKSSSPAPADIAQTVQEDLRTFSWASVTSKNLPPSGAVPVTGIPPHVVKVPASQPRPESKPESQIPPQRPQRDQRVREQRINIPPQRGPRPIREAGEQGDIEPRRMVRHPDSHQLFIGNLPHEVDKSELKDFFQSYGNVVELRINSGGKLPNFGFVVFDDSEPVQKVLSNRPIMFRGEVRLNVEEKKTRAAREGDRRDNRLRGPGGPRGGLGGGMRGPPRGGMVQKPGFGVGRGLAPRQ
# Technique: RNA Bind-n-Seq
# Form: RNA
# Medium: in vitro
# Concentration: 200 nM
# Setting: whole 134-nt RNA, ends assumed
# With: 150 mM LiCl
# Reference: input library
# Reading: higher = stronger binding
# Each molecule: 7-deaza-guanosine replaces G
Oligonucleotide,log2 enrichment
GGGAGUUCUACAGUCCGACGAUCUAACUUUAGAGGAGGAUCUGAUGGAUAUGGCAGUGGACUUGGAUUUGGGGAUGGCUAUAAUGGGUAUGGAGGAGGACCUGGAGGUGGCAAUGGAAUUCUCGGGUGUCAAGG,-0.287
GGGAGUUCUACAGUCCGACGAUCGUCCUGUGCUACACAUCGUAUGUACCGAAUCGGAAAAAAGGGGAAAAAAGGAAAAAAGGAAAGUAUUAUGUUACGCCGUUCGGAUCUGCAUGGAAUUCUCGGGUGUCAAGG,-0.343
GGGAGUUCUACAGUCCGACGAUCAGUCCUGUGCUACACAUCGUAUGUACCGAAUCGGGGAAAAAGGAAAAAGGAAAAAGGAAAGUAUUAUGUUACGCCGUUCGGAUCUGCACUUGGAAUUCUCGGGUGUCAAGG,-1.21
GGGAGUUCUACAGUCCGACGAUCAAGUCCUGUGCUACACAUCGUAUGUACCGAAUCGGGCCCGGGGCCCGGGGCCCGGGGAAAGUAUUAUGUUACGCCGUUCGGAUCUGCACUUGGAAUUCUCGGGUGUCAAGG,-0.827
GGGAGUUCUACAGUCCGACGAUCGGCAGGAGGAAGAGCGCAGGCGCCGUGAAGAAGAGAUGCGGCGGCAGCAAGAAGAAAUGAUGCGGCGACAGCAGGAAGGAUUCAAGGGAAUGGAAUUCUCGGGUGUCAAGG,0.142
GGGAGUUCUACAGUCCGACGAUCUUCCUCAAGUCCUGUGCUACACAUCGUAUGUACCGAAUCGGGUGGUGGUGGAAAGUAUUAUGUUACGCCGUUCGGAUCUGCACUUCCAGCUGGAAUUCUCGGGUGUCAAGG,0.0653
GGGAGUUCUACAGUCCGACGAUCAAGUCCUGUGCUACACAUCGUAUGUACCGAAUCGGGGAAAGGGAAAGGGGAAAGGGAAAGUAUUAUGUUACGCCGUUCGGAUCUGCACUUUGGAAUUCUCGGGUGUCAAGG,0.278
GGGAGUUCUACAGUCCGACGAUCUCAAGUCCUGUGCUACACAUCGUAUGUACCGAAUCGGGGCCCGGCCCGGGCCCGGAAAGUAUUAUGUUACGCCGUUCGGAUCUGCACUUCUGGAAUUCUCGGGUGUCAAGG,-0.961
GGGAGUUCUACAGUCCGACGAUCUCAAGUCCUGUGCUACACAUCGUAUGUACCGAAUCGGGUUUGGGAGGGUUUGGGAAAGUAUUAUGUUACGCCGUUCGGAUCUGCACUUCCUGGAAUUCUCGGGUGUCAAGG,-0.251
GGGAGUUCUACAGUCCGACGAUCGUCCUGUGCUACACAUCGUAUGUACCGAAUCGGGUUUUUUUGGGAGGGUUUUUUUGGGAAAGUAUUAUGUUACGCCGUUCGGAUCUGCACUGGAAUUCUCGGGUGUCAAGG,0.0126
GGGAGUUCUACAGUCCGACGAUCGUCCUGUGCUACACAUCGUAUGUACCGAAUCGGGAGGGUUUUUUUGGGAAAAAAAGGGAAAGUAUUAUGUUACGCCGUUCGGAUCUGCACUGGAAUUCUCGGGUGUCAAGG,-0.509

# Study 2
# Target: Prothrombin, mature alpha-thrombin (F2, Homo sapiens, UniProt P00734)
# Technique: aptamer microarray, sandwich
# Form: DNA with 2'F-ANA
# Medium: in vitro
# Concentration: 200 nM
# Setting: whole 15-mer aptamer, many near background
# With: Cy3 exosite-II aptamer, 400 nM
# Reading: higher = stronger binding
# Oligonucleotide: GGTTGGTGTGGTTGG
Modification,mean fluorescence intensity
2'F-ANA at 5 6 8 12 13,157 a.u.
2'F-ANA at 1 8 9 10 11 14 15,53.7 a.u.
2'F-ANA at 1 3 5 6 8 9 10 14 15,46.5 a.u.
2'F-ANA at 1 3 4 5 6 7 8 9 11 15,70.2 a.u.
2'F-ANA at 1 4 5 7 8 9 10 11 13 14 15,47.2 a.u.
2'F-ANA at 1 2 6 9 10 12,72.8 a.u.
2'F-ANA at 5 6 10 12 13 14 15,47.9 a.u.
2'F-ANA at 1 4 6 7 8 9 10 12 14 15,54.9 a.u.
2'F-ANA at 3 5 9 10 12 15,66.3 a.u.
2'F-ANA at 1 3 4 5 6 9 10 12 13 14,53.2 a.u.
2'F-ANA at 1 4 5 7 9 10 15,44.5 a.u.
2'F-ANA at 1 2 5 6 7 8 9 14 15,68.3 a.u.
2'F-ANA at 1 4 5 7 8 9 10 12 14 15,50.2 a.u.
2'F-ANA at 1 2 3 4 7 8 10 11 12 13 15,100 a.u.
2'F-ANA at 4 5 10 11 13 15,48.7 a.u.
2'F-ANA at 1 5 10 12 13,47.3 a.u.
2'F-ANA at 1 2 3 4 11,177 a.u.
2'F-ANA at 1 4 13,83.1 a.u.
2'F-ANA at 3 4 6 7 12 13 15,634 a.u.
2'F-ANA at 1 2 3 5 6 7 8 12 14,47.5 a.u.

# Study 3
# Target: RNA binding protein fox-1 homolog 2, RRM domain, GST-SBP tag (RBFOX2, Homo sapiens, UniProt O43251-10, residues 100-194)
# Technique: RNA Bind-n-Seq
# Form: RNA
# Medium: in vitro
# Concentration: 365 nM
# Setting: natural RNA segment, single round, ends assumed
# Reference: no-protein control
# Reading: higher = stronger binding
# Residues (chain): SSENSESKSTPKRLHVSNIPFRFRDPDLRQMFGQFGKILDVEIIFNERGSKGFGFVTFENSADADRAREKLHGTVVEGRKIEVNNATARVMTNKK
Oligonucleotide,RBNS enrichment (R)
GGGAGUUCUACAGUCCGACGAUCCUUGGGUUUUUGUACGAAGCUAUUUAAUGAGCCUGUGUCUUGGGGACUCAGCAGGCUGGAGCUUGGGGCCUGGUGGACCAUCACCUGGUGUCUGUAGGUGGACCCGGUCUUGGAAUUCUCGGGUGCCAA,0.83
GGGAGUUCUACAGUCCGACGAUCCCUAGUUAUUAUACAUAUUAAUUUUUAAGGUAUACAUUUAAAUUACACAAUUGUUCAUUGUGGUUUGUAUCCCAGAAUGUGUUGUGUUUUUUAAAAGAUGCAUAAUAGCUUGGAAUUCUCGGGUGCCAA,0.593
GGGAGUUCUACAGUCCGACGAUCGAGCACGAGUUCACCUUCCAGAUGUGGCCAGGGUGUGCCAGCUCCUCUCUCCUGUGCGUUGGAACCCCGGGGGAGGCAAGAGCAGAUCACAGGUGCAUGAGGGUUACACCUGGAAUUCUCGGGUGCCAA,2.97
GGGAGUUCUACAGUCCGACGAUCGCUGAAAAUGUCACCACUAUCUGGAGAUUUCGACGUGUUUUCCUCUCUGAAUCUGUUAUGAACACGUUGGUUGGCUGGAUUCAGUAAUAAAUAUGUAAGGCCUUUCUUUUUGGAAUUCUCGGGUGCCAA,0.398
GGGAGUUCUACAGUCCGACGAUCAAAAAAAAAAUGCUUUCCUGCCGGGGGGCAGGGGAGACGGAGAAACCCAUGUGCGUUUCCCAUGUGACCCCCUCCUCCCUGUGGGUCUGAGCCCCGGCCCCCCCCACCUCUGGAAUUCUCGGGUGCCAA,0.395
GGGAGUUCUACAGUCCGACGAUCAGCAUUUCAGCUGGGAGAUCUCCCUCUGGCCACCAGGACUCUGGCUACUGUUAAAAUCCUGAUGUUUCUGUGGAAUCCUCAGUGUUUAAUCCCACUCAAUAGUAUCAUUAUGGAAUUCUCGGGUGCCAA,0.455
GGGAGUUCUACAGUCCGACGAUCUCAUAUGCUAGUACUAUGUCAAAGCAACAGUCCACACUUUGUCCAAUGGUUUUUUCACUGCCUGACCUUUAAAAGGCCAUCGAUAUUCUUUGCUCUUGCCAAAAUUGCACUGGAAUUCUCGGGUGCCAA,2.87
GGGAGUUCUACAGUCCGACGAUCGUAAUGAUAGAGAAAAAACAAGGAAAACUAUUUAAUGAAAGCACGAUAUUUAUCUUUGGUAAAUGACUUUAGAGCAGUUAAAGACAUUGCUUAAAAACUCAGAAUCAGAAUGGAAUUCUCGGGUGCCAA,1.73
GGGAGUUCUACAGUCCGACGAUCAACAGGGAGGCACCUGGUAUCUCGAGUGCCUGCAGUUGCAAGUAUGUUUACACCUGGUGUCCAAUUUUGUAUUUUAAAAUGUAAUCCAUUUUUACUUCAGCUCAUCCAAAUGGAAUUCUCGGGUGCCAA,0.374
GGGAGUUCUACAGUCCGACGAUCCCUUAGGAUGACCUAAGGGGAGGACCCCGUACCCCAUCACCGGAGAGCCUGCAUUUCCCUGCUAUUGUAGGGAUUCCUACUGGGAGACCUCGAGGGGUAGCUGUCUCCUGUGGAAUUCUCGGGUGCCAA,0.769
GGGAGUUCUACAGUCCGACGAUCCUCCCCUUGUUCUUGGGGGGAAAGGAAGGAGACUUCUGCUGUUGCAGUGAGCCCAGAGUGGAUUGGCAUUAAACUGGCUGCUUUGACACACCUCAUCUCACCCAAGAGUAUGGAAUUCUCGGGUGCCAA,0.315
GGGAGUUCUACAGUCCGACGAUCCUGUGGCUGAAUCAGGUGUCCAGGUGAAGACAGGCCCUGUCCUGGAACCUGGAAUCACACAUACCUCGUGGUACUUUUGCCUUAGAUUUUACACUCUCAACAGCCAAGCAUGGAAUUCUCGGGUGCCAA,0.996

# Study 4
# Target: Interferon regulatory factor 5, full length, phosphomimetic (IRF5, Homo sapiens, UniProt Q13568-2, residues 1-514, K96S/S451D/S453D/S456D/S462D)
# Technique: protein-binding microarray
# Form: double-stranded DNA, one strand shown
# Medium: in vitro
# Concentration: 250 nM
# Setting: 60-bp whole probe
# With: salmon DNA 0.4 mg/ml
# Reference: random background probes
# Reading: higher = stronger binding
# Shared flanks, not repeated: GCCTAGCAC … GTCTTGATTCGCTTGACGCTGCTG
Oligonucleotide,log fluorescence [z-score]
TTAGGACTGCTTTTCGTTTAGTGCTAG,1.04
GACGGGTTCGACTATCGGGACGTGCTA,1.08
TCAACTTCTCTTTTTGCACTGTGCTAG,1.01
TTAGATCTCAGTCTTGATTAGTGCTAG,0.113
GACGATTTCAGTTTCGAAACGTGCTAG,8.05
TTAGATTTCAGGTTCGATTAGTGCTAG,1.5
TTAGATGTCAGACTGGATTAGTGCTAG,-0.00622
GACGGTATCAGACTGGGGACGTGCTAG,0.017
GAGGAACTGGGGTTTCGAGACGTGCTA,0.953
TTAGGTATTGGTATCGGTTAGTGCTAG,7.45
TTAGGTTTCGGTATCTGTTAGTGCTAG,10.5
TTAGGTAACGACTATCGGTTAGTGCTA,7.19
TTAGGTCTCGGTCTCGATTAGTGCTAG,0.755
AGATGTATGAGCCTCTGTTTGTGCTAG,-0.0523
TTAGGTTTCGACTATCGGTCAGTGCTA,9.24
TTCTTTATGTACTCTCTCCATGTGCTA,0.692
TTAGGTCTCCTTTTCCCTTAGTGCTAG,0.142
TTAGGTATCGGGTTTCTGTTAGTGCTA,5.07
GAGGGTATCGGGTATCGGGACGTGCTA,2.37
GAAGGACTGGGTTTCGGGACGTGCTAG,2.43
GACGATATCAGACTGGAGACGTGCTAG,0.357

# Some of these lines once more (study 4):
Oligonucleotide,log fluorescence [z-score]
TTAGGTTTCGACTATCGGTCAGTGCTA,9.24
GACGATTTCAGTTTCGAAACGTGCTAG,8.05
TTAGGTCTCGGTCTCGATTAGTGCTAG,0.755
TTAGGTAACGACTATCGGTTAGTGCTA,7.19
